{"data": "Assay results gathered from unrelated publications", "note": "Each numbered part is a random draw from the data of one study; scales do not carry over between parts.", "UniProt Q38832, sequence (whole entry, looked up)": "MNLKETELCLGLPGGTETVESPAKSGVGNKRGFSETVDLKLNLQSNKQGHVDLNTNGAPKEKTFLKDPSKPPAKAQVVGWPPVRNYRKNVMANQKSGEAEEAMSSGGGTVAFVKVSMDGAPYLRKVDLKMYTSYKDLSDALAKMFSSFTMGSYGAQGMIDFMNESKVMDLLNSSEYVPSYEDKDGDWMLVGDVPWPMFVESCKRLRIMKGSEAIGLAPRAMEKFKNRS", "UniProt Q13546, sequence (whole entry, looked up)": "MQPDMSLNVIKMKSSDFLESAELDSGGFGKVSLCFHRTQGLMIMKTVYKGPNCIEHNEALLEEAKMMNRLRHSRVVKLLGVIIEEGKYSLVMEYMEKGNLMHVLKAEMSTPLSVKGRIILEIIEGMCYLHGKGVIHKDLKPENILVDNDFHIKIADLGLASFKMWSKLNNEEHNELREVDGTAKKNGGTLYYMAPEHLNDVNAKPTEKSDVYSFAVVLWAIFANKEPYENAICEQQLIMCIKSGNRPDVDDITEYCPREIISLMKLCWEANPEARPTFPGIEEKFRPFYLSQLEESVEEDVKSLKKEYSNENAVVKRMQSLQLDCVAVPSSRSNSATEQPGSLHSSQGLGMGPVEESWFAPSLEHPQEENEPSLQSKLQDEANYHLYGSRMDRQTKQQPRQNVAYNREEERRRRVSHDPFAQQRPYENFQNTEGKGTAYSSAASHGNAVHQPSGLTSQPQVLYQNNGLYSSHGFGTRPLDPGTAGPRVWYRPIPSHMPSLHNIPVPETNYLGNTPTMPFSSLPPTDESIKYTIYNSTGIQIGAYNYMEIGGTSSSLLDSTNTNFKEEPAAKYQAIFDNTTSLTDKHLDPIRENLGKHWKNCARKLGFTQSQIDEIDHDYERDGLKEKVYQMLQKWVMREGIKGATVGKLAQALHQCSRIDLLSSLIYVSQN", "UniProt Q00532, sequence (whole entry, looked up)": "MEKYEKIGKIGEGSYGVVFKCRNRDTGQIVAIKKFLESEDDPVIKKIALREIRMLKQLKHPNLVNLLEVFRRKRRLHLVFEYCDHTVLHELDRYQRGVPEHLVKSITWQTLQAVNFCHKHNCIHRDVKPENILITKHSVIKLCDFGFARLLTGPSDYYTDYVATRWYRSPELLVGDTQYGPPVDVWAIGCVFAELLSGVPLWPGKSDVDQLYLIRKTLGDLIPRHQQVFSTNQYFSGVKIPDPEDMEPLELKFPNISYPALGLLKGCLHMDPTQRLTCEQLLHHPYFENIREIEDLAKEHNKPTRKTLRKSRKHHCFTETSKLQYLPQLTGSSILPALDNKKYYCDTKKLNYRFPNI", "UniProt Q8H174, sequence (whole entry, looked up)": "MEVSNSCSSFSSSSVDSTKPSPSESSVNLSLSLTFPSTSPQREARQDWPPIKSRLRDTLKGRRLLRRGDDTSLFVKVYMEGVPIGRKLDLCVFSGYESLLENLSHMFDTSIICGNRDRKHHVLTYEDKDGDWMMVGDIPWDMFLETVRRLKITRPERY", "UniProt Q13976, sequence (whole entry, looked up)": "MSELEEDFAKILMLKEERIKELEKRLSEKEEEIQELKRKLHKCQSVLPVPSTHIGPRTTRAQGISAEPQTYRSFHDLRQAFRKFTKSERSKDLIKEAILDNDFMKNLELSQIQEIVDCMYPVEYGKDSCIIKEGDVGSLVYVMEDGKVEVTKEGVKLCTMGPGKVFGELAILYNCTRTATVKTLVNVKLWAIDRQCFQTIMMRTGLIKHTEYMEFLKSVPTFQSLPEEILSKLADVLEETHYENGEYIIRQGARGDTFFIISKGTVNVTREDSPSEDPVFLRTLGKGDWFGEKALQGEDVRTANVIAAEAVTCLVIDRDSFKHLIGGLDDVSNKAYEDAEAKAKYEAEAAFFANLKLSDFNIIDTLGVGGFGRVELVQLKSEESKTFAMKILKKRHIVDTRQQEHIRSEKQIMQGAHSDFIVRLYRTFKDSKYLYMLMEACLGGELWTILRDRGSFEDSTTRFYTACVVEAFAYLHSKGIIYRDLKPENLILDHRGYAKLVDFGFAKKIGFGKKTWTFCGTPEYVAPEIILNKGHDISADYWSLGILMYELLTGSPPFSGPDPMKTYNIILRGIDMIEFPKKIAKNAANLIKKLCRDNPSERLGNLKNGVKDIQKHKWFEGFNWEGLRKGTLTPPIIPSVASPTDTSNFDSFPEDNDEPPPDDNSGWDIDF", "UniProt P93024, sequence (whole entry, looked up)": "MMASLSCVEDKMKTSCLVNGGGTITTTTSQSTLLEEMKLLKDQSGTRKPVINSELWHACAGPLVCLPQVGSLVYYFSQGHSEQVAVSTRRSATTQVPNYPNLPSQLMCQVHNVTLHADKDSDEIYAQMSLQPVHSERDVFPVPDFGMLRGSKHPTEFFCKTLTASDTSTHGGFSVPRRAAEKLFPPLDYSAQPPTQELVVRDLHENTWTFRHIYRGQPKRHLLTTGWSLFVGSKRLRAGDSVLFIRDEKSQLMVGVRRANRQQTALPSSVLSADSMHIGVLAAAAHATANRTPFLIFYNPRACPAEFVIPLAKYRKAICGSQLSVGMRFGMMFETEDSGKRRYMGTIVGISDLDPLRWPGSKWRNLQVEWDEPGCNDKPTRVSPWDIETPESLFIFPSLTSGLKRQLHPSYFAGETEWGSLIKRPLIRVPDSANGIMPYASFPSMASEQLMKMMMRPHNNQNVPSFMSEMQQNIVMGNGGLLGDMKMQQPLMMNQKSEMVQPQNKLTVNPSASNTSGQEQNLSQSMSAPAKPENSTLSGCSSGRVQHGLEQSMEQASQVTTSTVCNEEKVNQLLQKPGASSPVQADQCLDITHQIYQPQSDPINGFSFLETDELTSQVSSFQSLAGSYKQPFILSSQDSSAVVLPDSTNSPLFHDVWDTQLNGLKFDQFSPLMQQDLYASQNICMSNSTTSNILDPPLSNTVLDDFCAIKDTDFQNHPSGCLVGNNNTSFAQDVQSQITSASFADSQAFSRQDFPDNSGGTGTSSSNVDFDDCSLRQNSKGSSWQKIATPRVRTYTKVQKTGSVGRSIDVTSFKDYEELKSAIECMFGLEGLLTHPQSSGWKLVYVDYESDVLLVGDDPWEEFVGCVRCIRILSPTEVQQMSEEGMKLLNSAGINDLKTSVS", "UniProt Q9C7I9, sequence (whole entry, looked up)": "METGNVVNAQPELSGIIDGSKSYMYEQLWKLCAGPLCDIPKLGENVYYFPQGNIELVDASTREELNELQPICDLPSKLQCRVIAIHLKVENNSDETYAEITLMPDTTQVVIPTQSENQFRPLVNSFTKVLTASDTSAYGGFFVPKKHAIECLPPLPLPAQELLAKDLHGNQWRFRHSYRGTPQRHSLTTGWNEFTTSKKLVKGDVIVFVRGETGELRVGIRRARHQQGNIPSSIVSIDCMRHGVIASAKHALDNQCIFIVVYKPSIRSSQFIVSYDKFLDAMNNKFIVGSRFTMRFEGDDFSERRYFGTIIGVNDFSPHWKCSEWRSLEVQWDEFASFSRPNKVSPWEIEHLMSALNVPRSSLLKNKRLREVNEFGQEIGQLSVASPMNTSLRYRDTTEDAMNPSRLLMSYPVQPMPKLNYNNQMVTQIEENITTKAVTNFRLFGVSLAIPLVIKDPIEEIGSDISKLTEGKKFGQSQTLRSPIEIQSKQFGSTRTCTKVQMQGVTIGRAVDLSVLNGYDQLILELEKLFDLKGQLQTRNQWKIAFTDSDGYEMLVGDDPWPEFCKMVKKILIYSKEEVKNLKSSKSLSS"}
{"data": "Series 1", "target": "Centromere-binding protein 1, full length, N-terminal tag (CBF1, Saccharomyces cerevisiae, UniProt P17106, residues 1-351)", "technique": "protein-binding microarray", "form": "double-stranded DNA, one strand shown", "sample": "in vitro", "concentration": "0.8 µM", "setting": "whole 60-bp probe, no competitor", "direction": "higher = stronger binding", "all sequences stand within": "… GTCTTGATTCGCTTGACGCTGCTG", "UniProt P17106, sequence (whole entry, looked up)": "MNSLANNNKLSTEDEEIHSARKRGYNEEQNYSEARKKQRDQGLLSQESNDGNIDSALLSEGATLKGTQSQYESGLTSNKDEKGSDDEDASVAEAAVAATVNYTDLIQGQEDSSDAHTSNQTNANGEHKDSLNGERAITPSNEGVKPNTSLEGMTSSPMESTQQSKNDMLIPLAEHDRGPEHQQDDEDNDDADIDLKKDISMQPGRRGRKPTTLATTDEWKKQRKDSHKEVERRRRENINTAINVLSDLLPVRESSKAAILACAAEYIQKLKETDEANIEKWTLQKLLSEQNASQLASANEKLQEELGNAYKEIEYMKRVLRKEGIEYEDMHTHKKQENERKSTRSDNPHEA"}
{"Strand": "GAAGCTATCGACACCCGCATGACAGAATCTTAATAG", "fluorescence intensity [a.u.]": 614}
{"Strand": "GAATTTGACTCAAGTGTCACGTGCATCAGTTTTTAG", "fluorescence intensity [a.u.]": 15900}
{"Strand": "CTAAGAAATCTGCTGCACATGCCACACGCAGTATTC", "fluorescence intensity [a.u.]": 699}
{"Strand": "CTAATGTCGTTTTGTGAGGTGAGCTTTGCTAGTTTC", "fluorescence intensity [a.u.]": 516}
{"Strand": "GAAAGAAAAAAGAGATGGGTGATGAATACGTTTTAG", "fluorescence intensity [a.u.]": 516}
{"Strand": "GAAAAAAGGGAGTGGCACGAGATTCATACAATGTAG", "fluorescence intensity [a.u.]": 762}
{"Strand": "GAAAAATAATACATTCACCACGCTTGTTAAAAATAG", "fluorescence intensity [a.u.]": 523}
{"Strand": "TGTACGAAGCTATATGGTGGTGTTATAGTAGTTAGG", "fluorescence intensity [a.u.]": 532}
{"data": "Series 2", "Molecule": "B1 (IAA3)", "technique": "two-hybrid", "relative to": "out of 4 tests", "direction": "higher = firmer interaction", "T1": "itself; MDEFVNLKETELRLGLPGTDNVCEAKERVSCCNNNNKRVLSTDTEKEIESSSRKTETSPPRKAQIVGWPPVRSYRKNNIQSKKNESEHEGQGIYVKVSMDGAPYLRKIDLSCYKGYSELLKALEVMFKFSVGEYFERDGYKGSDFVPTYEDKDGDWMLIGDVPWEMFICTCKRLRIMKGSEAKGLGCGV", "B1": "IAA3 (Arabidopsis thaliana, UniProt Q38822); chain MDEFVNLKETELRLGLPGTDNVCEAKERVSCCNNNNKRVLSTDTEKEIESSSRKTETSPPRKAQIVGWPPVRSYRKNNIQSKKNESEHEGQGIYVKVSMDGAPYLRKIDLSCYKGYSELLKALEVMFKFSVGEYFERDGYKGSDFVPTYEDKDGDWMLIGDVPWEMFICTCKRLRIMKGSEAKGLGCGV"}
{"partner": "ARF13 (Arabidopsis thaliana, UniProt Q9FX25)", "positive tests": 0}
{"partner": "ARF20 484-590 (Arabidopsis thaliana, UniProt Q9C7I9)", "positive tests": 0}
{"partner": "ARF4 660-788 (Arabidopsis thaliana, UniProt Q9ZTX9)", "positive tests": 0}
{"partner": "ARF10 575-693 (Arabidopsis thaliana, UniProt Q9SKN5)", "positive tests": 1}
{"partner": "IAA31 (Arabidopsis thaliana, UniProt Q8H174)", "positive tests": 3}
{"partner": "IAA14 (Arabidopsis thaliana, UniProt Q38832)", "positive tests": 4}
{"partner": "T1, itself", "positive tests": 2}
{"partner": "ARF5 788-902 (Arabidopsis thaliana, UniProt P93024)", "positive tests": 4}
{"data": "Series 3", "target": "Serine/threonine-protein kinase B-raf (BRAF, Homo sapiens, UniProt P15056)", "observed": "enzyme activity", "mode": "inhibitor", "concentration": "0.5 µM", "relative to": "control", "UniProt P15056, sequence (whole entry, looked up)": "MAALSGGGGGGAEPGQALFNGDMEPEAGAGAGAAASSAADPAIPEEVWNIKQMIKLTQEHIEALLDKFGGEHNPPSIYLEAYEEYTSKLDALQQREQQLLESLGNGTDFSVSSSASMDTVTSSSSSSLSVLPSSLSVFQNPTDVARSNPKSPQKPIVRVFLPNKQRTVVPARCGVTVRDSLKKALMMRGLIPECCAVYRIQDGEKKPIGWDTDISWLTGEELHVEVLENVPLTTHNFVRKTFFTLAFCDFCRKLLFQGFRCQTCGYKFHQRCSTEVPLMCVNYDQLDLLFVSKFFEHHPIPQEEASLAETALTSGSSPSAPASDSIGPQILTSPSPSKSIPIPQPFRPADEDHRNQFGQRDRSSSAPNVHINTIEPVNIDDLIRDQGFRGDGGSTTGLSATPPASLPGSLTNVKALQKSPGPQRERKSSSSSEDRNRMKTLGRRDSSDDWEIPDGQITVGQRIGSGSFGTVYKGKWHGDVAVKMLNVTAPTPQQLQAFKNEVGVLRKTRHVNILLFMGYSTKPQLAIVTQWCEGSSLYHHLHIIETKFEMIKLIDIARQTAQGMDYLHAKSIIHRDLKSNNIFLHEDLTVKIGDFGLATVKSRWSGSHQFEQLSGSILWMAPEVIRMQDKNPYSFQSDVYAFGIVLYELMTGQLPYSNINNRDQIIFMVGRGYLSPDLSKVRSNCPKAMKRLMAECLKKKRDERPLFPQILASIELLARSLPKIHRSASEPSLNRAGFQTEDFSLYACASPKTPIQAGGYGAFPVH"}
{"Compound": "CC#CC(=O)Nc1cc2c(Nc3ccc(F)c(Cl)c3)ncnc2cn1", "remaining activity": "82.1%"}
{"Compound": "Cc1cc(Nc2nc(-c3ccccc3)nc3ccccc23)n[nH]1", "remaining activity": "99.5%"}
{"Compound": "CC[n+]1c(/C=C/N(C)c2ccccc2)n(-c2ccccc2)c2ccc(-c3nc4ccccc4s3)cc21", "remaining activity": "100%"}
{"data": "Series 4", "SMILES": "CNC(=O)Nc1ccc2c(c1)[C@@]1(CC2)OC(=O)N(CC(=O)N(Cc2ccc(F)cc2)[C@@H](C)C(F)(F)F)C1=O", "observed": "cell-free assay", "technique": "competition with immobilised ligand", "concentration": "1 µM"}
{"target": "PRKG1 (Homo sapiens, UniProt Q13976)", "remaining binding [%]": 100}
{"target": "CDKL1 (Homo sapiens, UniProt Q00532)", "remaining binding [%]": 91}
{"target": "RIPK1 (Homo sapiens, UniProt Q13546)", "remaining binding [%]": 93}
{"note": "A few entries again (series 2):"}
{"partner": "ARF13 (Arabidopsis thaliana, UniProt Q9FX25)", "positive tests": 0}
{"partner": "ARF20 484-590 (Arabidopsis thaliana, UniProt Q9C7I9)", "positive tests": 0}
{"partner": "ARF4 660-788 (Arabidopsis thaliana, UniProt Q9ZTX9)", "positive tests": 0}
